Measured values gathered from unrelated publications.
Lines come from different studies, so protocols differ.

Cc1ncc2n1-c1ccc(Cl)cc1C(c1ccccc1F)=NC2
AUC(0-inf) (human, plasma; oral, 2 mg, day 1, single dose alone, geometric LS mean): 26.9 ng·h/mL

CC(C)[C@H](N)C(=O)NCCCS(=O)(=O)O
AUC(0-inf) (human, plasma; oral, 265 mg twice daily, week 65, steady state): 11300 ng·h/mL

CCC(CC)COC(=O)[C@H](C)N[P@](=O)(OC[C@H]1O[C@@](C#N)(c2ccc3c(N)ncnn23)[C@H](O)[C@@H]1O)Oc1ccccc1
AUC(0-inf) (human, plasma; intravenous, 100 mg single dose): 1290 ng·h/mL

OCc1ncc2n1-c1ccc(Cl)cc1C(c1ccccc1F)=NC2
AUC(0-inf) (human, plasma; oral, 7.5 mg of midazolam, day 1, geometric mean, no amenamevir): 44.9 ng·h/mL

C[C@]1(CO)Cc2ncn(-c3ccc(C#N)c(Cl)c3)c2C(=O)O1
AUC(0-inf) (human, Chinese, plasma; 20 mg single dose, geometric mean): 7 µM·h

N.N.O=C([O-])C1(C(=O)[O-])CCC1.[Pt+2]
AUC(0-inf) (measured: unbound platinum; human, plasma ultrafiltrate; intravenous, AUC 2, median, dose level -4): 25000 ng·h/mL

COC[C@@H](NC(C)=O)C(=O)NCc1ccccc1
AUC(0-inf) (fluorescence quenching; human healthy male, plasma; oral, 100 mg single): 48800 ng·h/mL

O=c1ccc2ncc(=O)n3c2n1C[C@H]3CN1CCC(NCc2cc3c(cn2)OCCC3)CC1
AUC(0-inf) (healthy human volunteers, plasma; oral, dose not given, arithmetic mean, with: rifampicin): 10000 ng·h/mL

OCc1ncc2n1-c1ccc(Cl)cc1C(c1ccccc1F)=NC2
AUC(0-inf) (human; dose not given, with: risdiplam): 9.41 ng·h/mL

OCc1ncc2n1-c1ccc(Cl)cc1C(c1ccccc1F)=NC2
AUC(0-inf) (humans, plasma; 3 mg of midazolam, midazolam alone): 15.4 ng·h/mL

Cc1ncc2n1-c1ccc(Cl)cc1C(c1ccccc1F)=NC2
AUC(0-inf) (human, plasma; intravenous bolus, 3 µg, mean of subjects): 0.11 ng·h/mL

CC(=O)c1c(C)c2cnc(Nc3ccc(C4CCN(CCS(C)(=O)=O)CC4)cn3)nc2n(C2CCCC2)c1=O
AUC(0-inf) (human, dose-escalation trial, plasma; oral, 100 mg twice daily, day 21, multiple doses): 3560 ng·h/mL

C[C@@](Cc1ccc(O)c(O)c1)(NN)C(=O)O
AUC(0-inf) (measured: levodopa; healthy human volunteers, plasma; subcutaneous, dose not given, 24 h infusion, geometric mean, crossover): 2790 ng·h/mL

COc1ccc(C[C@@H]2NC(=O)[C@H]([C@@H](C)O)NC(=O)[C@@H]3[C@@H]4CCN3C(=O)[C@@H]3Cc5cn(c6ccc(F)cc56)CCCCCCN(Cc5ccc(cc5)CCNC(=O)[C@]5(C)CCCN5C2=O)C(=O)CCC(=O)N[C@@H](C)C(=O)N[C@H](CNC(=O)CCCCC[N+](C)(C)C)C(=O)N[C@@H](Cc2cccc(c2)CNC(=O)CO4)C(=O)N3)cc1
AUC(0-inf) (human, plasma; oral, 100 mg single, geometric mean, with: sodium caprate 1800 mg): 0.979 µM·h

Cc1ncc2n1-c1ccc(Cl)cc1C(c1ccccc1F)=NC2
AUC(0-inf) (human, plasma; oral, 2 mg, day 1): 22.3 ng·h/mL

Repeated from above:
C[C@@](Cc1ccc(O)c(O)c1)(NN)C(=O)O
AUC(0-inf) (measured: levodopa; healthy human volunteers, plasma; subcutaneous, dose not given, 24 h infusion, geometric mean, crossover): 2790 ng·h/mL

COc1ccc(C[C@@H]2NC(=O)[C@H]([C@@H](C)O)NC(=O)[C@@H]3[C@@H]4CCN3C(=O)[C@@H]3Cc5cn(c6ccc(F)cc56)CCCCCCN(Cc5ccc(cc5)CCNC(=O)[C@]5(C)CCCN5C2=O)C(=O)CCC(=O)N[C@@H](C)C(=O)N[C@H](CNC(=O)CCCCC[N+](C)(C)C)C(=O)N[C@@H](Cc2cccc(c2)CNC(=O)CO4)C(=O)N3)cc1
AUC(0-inf) (human, plasma; oral, 100 mg single, geometric mean, with: sodium caprate 1800 mg): 0.979 µM·h
